Measurements collected from several papers.
Each line is one published result; not all experiments were run side by side. Numbers after ± are the reported error. Ends that are not written are not given here.
B1: Rad9 protein; chain MSGQLVQWKSSPDRVTQSAIKEALHSPLADGDMNEMNVPVDPLENKVNSTNIIEGSPKANPNPVKFMNTSEIFQKSLGLLDESPRHDDELNIEVGDNDRPNANILHNERTPDLDRIANFFKSNRTPGKENLLTKYQSSDLEDTPLMLRKKMTFQTPTDPLEQKTFKKLKSDTGFCYYGEQNDGEENASLEVTEADATFVQMAERSADNYDCALEGIVTPKRYKDELSKSGGMQDERVQKTQIMISAESPNSISSYDKNKITGNGRTTRNVNKVFNNNEDNIGAIEEKNPVKKKSENYSSDDLRERNNQIIQSNESEEINELEKNLNVSGRENDVNNLDIDINSAVSGTPSRNNAEEEMYSSESVNNREPSKKWIFRYSKDKTENNSNRSTQIVNNPRTQEMPLDSISIDTQPLSKSFNTETNNELETQIIVSSLSQGISAQKGPVFHSTGQTEEIKTQIINSPEQNALNATFETPVTLSRINFEPILEVPETSSPSKNTMSKPSNSSPIPKEKDTFNIHEREVETNNVFSNDIQNSSNAATRDDIIIAGSSDFNEQKEITDRIYLQLSGKQISDSGSDETERMSPNELDTKKESTIMSEVELTQELPEVEEQQDLQTSPKKLVVEEETLMEIKKSKGNSLQLHDDNKECNSDKQDGTESLDVALIEHESKGQSSELQKNLMQLFPSESQEIIQNRRTIKRRQKDTIEIGEEEENRSTKTSPTKHLKRNSDLDAASIKREPSCSITIQTGETGSGKDSKEQSYVFPEGIRTADNSFLSKDDIIFGNAVWCQYTWNYKFYPGILLEVDTNQDGCWIYFETGRSLTKDEDIYYLDIRIGDAVTFDGNEYVVVGLECRSHDLNIIRCIRGYDTVHLKKKNASGLLGKRTLIKALSSISLDLSEWAKRAKIILEDNEKNKGDAYRYLRHPIRGRKSMTNVLSPKKHTDDEKDINTHTEVYNNEIESSSEKKEIVKKDSRDALAEHAGAPSLLFSSGEIRTGNVFDKCIFVLTSLFENREELRQTIESQGGTVIESGFSTLFNFTHPLAKSLVNKGNTDNIRELALKLAWKPHSLFADCRFACLITKRHLRSLKYLETLALGWPTLHWKFISACIEKKRIVPHLIYQYLLPSGESFRLSLDSPSKGGIIKSNNIFSFYTQFLRGSNLRDQICGVKKMLNDYIVIVWGRSELDSFVKFAFACLSAGRMLTIDLPNIDVDDTEPLLNALDSLVPRIGSELSNRKLKFLIYANENNGKSQMKLLERLRSQISLKFKKFNYIFHTESKEWLIQTIINEDTGFHDDITDNDIYNTISEVR
B2: HPV E7 protein; chain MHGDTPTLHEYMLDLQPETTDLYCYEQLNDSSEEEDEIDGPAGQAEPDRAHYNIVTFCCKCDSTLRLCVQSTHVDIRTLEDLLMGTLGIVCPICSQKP

The Kd of `BKRF4 fragment P86A (Epstein-Barr virus)` is reported as 4500 nM (H2A/H2B dimer (Homo sapiens); ITC; 25 °C, NaCl 0.5 M).
The Kd of `B1 (Rad9 protein)` is reported as 58 ± 25 nM (Transcriptional regulatory protein EmbR (embR, Mycobacterium tuberculosis, UniProt P9WGJ9)).
`B2 (HPV E7 protein)` has a maximal activation of ~100% (Retinoblastoma-associated protein, phosphorylated; with E2F (Homo sapiens, UniProt P06400, del245-267/del582-642); activator, fluorescence polarization; together with: phosphorylated Rb 20 nM; baseline: unphosphorylated Rb over phosphorylated Rb).
For `Spike receptor binding domain (SARS-CoV-2)`, the kon was 493000 M⁻¹ s⁻¹ (ACE2 recombinant ectodomain 18-740 (Homo sapiens, UniProt Q9BYF1); SPR).
For `MnTx-1 mature (Pterinochilus murinus, UniProt C0HMD2)`, the IC50 was 381 nM (KCNA3 (Homo sapiens, UniProt P22001-1); K+ current inhibition, inhibitor, patch-clamp; whole-cell).
Under “frequency of responding donors”, `ITEEVGHTDLMAAY` is recorded as 50 (AIM; peptide, CD8+ T cells from PBMC, human donors; HLA-A*01:01 restricted, unit not given; baseline: positive over tested donors).
`Tat fragment (HIV-1)` has a Vmax decrease of 47% (SLC6A3 Y470F (Homo sapiens, UniProt Q01959); dopamine uptake; PC12; 20 min, together with: Tat 250 nM; baseline: untreated control, higher = stronger decrease).
`RSV F/foldon soluble ectodomain S155C/S290C/D486H/E487Q/F488W/D489H (respiratory syncytial virus)` — result for “subunits per oligomer”: 3 (itself; SEC).
The responding donors of `QFAPSASAFFGMSRI` is reported as 17% (human CD4 T cells; AIM; peptide).
`QPLRKLCILHRNPGRCYQKIPAFYYNQKKKQCEGFTWSGCGGNSNRFKTIEECRRTCIRK (dendrotoxin I; ends and bridges not checked; cysteine pairing not given here; sequence looked up)`: “coupling free energy” 1.3 kcal/mol (Calcium-activated potassium channel subunit alpha-1 (Kcnma1, Rattus norvegicus, UniProt Q62976); blocker, planar bilayer single channel; together with: BP).
The IC50 of `GRKKRRQRRRPQEDGGSFAYGAMKALAG (Tat peptide W2A/Y10A (HIV))` is reported as > 10000 nM (CIB1 (Homo sapiens, UniProt Q99828); competition with peptide, competitor, TR-FRET; peptide).

A few entries again:
The IC50 of `GRKKRRQRRRPQEDGGSFAYGAMKALAG (Tat peptide W2A/Y10A (HIV))` is reported as > 10000 nM (CIB1 (Homo sapiens, UniProt Q99828); competition with peptide, competitor, TR-FRET; peptide).
The responding donors of `QFAPSASAFFGMSRI` is reported as 17% (human CD4 T cells; AIM; peptide).
